Measurements pooled from the literature.
Compare with care: the assays were run in different laboratories.
Target: Phosphatidylinositol 4-phosphate 3-kinase C2 domain-containing subunit beta (PIK3C2B, Homo sapiens, UniProt O00750)
Sequence of UniProt O00750 (whole entry, unmodified, looked up): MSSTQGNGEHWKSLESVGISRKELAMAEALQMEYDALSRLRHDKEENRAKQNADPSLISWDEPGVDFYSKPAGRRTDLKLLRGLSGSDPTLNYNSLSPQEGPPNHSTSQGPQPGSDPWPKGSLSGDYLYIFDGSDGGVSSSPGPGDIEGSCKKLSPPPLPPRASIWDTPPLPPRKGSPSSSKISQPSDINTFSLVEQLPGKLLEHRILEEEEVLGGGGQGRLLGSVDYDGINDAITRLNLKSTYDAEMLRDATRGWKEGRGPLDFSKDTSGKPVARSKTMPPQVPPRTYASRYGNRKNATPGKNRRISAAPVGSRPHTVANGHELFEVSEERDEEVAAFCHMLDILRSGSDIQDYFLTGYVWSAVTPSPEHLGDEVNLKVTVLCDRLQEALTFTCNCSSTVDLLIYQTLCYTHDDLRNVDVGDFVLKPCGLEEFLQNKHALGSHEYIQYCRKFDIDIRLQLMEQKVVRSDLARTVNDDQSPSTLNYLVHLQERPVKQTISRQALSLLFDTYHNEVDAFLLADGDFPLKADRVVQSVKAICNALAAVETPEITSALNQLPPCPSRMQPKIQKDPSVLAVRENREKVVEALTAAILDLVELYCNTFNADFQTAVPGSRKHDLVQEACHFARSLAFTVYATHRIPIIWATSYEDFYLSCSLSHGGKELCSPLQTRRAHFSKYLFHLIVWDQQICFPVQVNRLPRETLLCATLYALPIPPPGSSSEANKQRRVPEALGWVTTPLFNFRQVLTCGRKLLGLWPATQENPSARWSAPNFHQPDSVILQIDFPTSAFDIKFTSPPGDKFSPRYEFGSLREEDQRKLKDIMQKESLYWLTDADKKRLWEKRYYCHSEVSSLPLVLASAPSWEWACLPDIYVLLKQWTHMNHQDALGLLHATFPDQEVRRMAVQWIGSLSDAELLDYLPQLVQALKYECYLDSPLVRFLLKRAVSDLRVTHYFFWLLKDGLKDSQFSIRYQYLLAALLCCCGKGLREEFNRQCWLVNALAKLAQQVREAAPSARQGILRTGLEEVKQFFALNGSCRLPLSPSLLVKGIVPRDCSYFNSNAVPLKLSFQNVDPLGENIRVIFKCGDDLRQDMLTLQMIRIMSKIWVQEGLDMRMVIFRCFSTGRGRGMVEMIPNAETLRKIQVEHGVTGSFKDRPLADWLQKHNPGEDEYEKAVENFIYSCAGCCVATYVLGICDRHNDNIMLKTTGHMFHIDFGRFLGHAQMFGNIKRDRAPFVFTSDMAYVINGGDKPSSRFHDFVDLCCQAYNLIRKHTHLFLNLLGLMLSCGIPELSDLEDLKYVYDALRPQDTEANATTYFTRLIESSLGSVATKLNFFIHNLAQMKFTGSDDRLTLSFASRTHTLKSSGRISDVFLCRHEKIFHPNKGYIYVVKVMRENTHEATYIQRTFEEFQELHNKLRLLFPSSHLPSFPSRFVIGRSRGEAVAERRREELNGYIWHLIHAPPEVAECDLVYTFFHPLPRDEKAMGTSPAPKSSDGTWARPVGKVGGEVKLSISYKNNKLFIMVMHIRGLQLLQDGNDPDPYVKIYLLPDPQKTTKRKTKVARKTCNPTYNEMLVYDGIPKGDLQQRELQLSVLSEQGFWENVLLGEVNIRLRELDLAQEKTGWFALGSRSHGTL

`CC(=O)N1c2ccc(-c3ccc(CNC(=O)c4cn5cc(-c6cnc(N)nc6)nc(N6CCOCC6)c5n4)cc3)cc2CC[C@@H]1C` has a remaining binding of 90% (binding, competition with immobilised ligand; 10 µM).
`CNS(=O)(=O)Nc1nccc(Cc2c(C)c3ccc(Oc4ncccc4F)cc3oc2=O)c1F` gave a remaining binding of 97% (cell-free assay, competition with immobilised ligand; 10 µM).
The remaining binding of `C=CC(=O)N1CCc2ccc(-n3c(=O)ccc4cnc5ccc(-c6cnn(C)c6)cc5c43)cc21` is reported as 100% (KINOMEscan; 1 µM; baseline: DMSO control).
For `CC(=O)c1cnc(N)nc1N1CC[C@H]1c1nn2ccc(Cl)c2c(=O)n1-c1ccccc1`, the target engagement was 23.9% (KiNativ; Jurkat cell lysate; 1 µM, 0.25 h).
`Cc1cc(NC(=O)[C@H](O)c2cc(F)cc(F)c2)ccc1-c1cnc(N)c(C(=O)NC(C)C)c1` has a remaining binding of 7.3% (binding, competition with immobilised ligand; 10 µM).
For `CCN1CCN(Cc2ccc(C(=O)Nc3ccc(C)c(NCc4cnc5[nH]ccc5c4OC)c3)cc2C(F)(F)F)CC1`, the remaining binding was 79% (binding, competition with immobilised ligand; 1 µM).
`Cc1cnc2nc1Nc1cccc(c1)COC/C=C/COCc1cc(ccc1OCCN1CCOCC1)N2` has a remaining binding of 80% (binding; 0.1 µM).
With `CNC1C[S+]2CC[S+]3CC[S+](C1)[Ru-4]321([N]=C=S)[n]2c3ccc(OC)cc3c3c4c(c5cc(F)c[n+]1c5c32)C(=O)NC4=O` (centres unmarked) the remaining binding was 100% (KinomeScan; 0.1 µM; baseline: untreated).
The inhibition of `C=CC(=O)Nc1cc(-c2nn(C3CCN(CCNC(=O)[C@H](C)CCC45CC6CC(CC(C6)C4)C5)CC3)c3ncnc(N)c23)ccc1Oc1ccccc1` is reported as 13.4% (inhibitor, KiNativ profiling; biochemical; 2 µM).
`C=CC(=O)N1CCCC(n2c(=O)c3ncccc3n(Cc3ccc(Oc4ccccc4)cc3)c2=O)C1` (centres unmarked) gave a remaining binding of 63% (cell-free assay, competition with immobilised ligand; 1 µM).
The remaining binding of `CN1CCN(Cc2ccc(NC(=O)c3cccc(C#Cc4cnc(N)c5ncccc45)c3)cc2C(F)(F)F)CC1` is reported as 100% (cell-free assay, competition with immobilised ligand; 0.5 µM).
With `CC(C)=CC1OC(C)(C)C2C=C3C(=O)C(Cl)=CC(O)C3C3C(O)C4OC4C(=O)C132` (centres unmarked) the remaining binding was 58% (cell-free assay, competition with immobilised ligand; 10 µM).
`COc1cc(Nc2nc(C)cc(-c3cnn4nc(OC)ccc34)n2)cc(C(F)(F)F)c1` gave a remaining activity of 100% (inhibitor; 1 µM; baseline: control).
`CS(=O)(=O)Nc1cccc(-c2csc3cnc(Nc4ccc(N5CCN(CCCCCOc6cccc7c6C(=O)N(C6CCC(=O)NC6=O)C7=O)CC5)cc4)nc23)c1` (centres unmarked) has an inhibition of 4.06% (probe labelling, inhibitor, KiNativ chemoproteomics; MOLT-4; 1 µM).
